# Measured values pooled from the literature.
# Protocols differ between the studies behind these lines. “And” joins repeats or separate records; there may be more than shown.
# Target: Calcium/calmodulin-dependent protein kinase kinase 2 (CAMKK2, Homo sapiens, UniProt Q96RR4)
# UniProt Q96RR4, sequence (whole entry, looked up): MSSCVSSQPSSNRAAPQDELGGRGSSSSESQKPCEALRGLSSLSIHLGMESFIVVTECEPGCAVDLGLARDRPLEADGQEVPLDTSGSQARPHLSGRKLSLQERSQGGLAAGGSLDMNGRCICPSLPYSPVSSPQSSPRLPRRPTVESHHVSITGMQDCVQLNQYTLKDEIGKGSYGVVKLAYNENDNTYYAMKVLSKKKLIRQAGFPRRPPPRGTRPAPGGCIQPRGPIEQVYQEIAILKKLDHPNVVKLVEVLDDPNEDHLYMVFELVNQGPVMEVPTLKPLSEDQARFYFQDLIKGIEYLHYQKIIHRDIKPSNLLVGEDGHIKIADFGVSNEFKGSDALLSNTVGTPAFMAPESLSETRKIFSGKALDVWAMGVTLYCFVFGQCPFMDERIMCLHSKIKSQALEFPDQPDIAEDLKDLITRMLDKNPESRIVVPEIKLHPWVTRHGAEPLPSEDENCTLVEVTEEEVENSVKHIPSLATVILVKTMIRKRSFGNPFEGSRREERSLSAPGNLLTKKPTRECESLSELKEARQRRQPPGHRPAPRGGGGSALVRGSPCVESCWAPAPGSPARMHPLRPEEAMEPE
SMILES,test,system,setting,how to read,endpoint,result
Cc1ccc(-c2c(/C=C(\C#N)C(=O)NC(C)C)n(CCCO)c3ncnc(N)c23)cc1,"cell-free assay, competition with immobilised ligand",,1 µM,,remaining binding,100%
NC(=O)[C@@H](O)C[C@H]1CCc2sc3ncnc(O[C@H]4CC[C@H](N5CCOCC5)CC4)c3c21,"enzyme activity, inhibitor",,10 µM,,inhibition,27%
O=C(Cc1ccc(OCc2ccccc2)cc1)NC1(C(=O)O)CCN(C(=O)c2ccc(-c3cccc(Cl)c3)cc2)CC1,"enzyme activity, inhibitor",,10 µM,,activity vs control,108%
CN1CCN(Cc2ccc(-c3ccc(CO[C@H]4CCC[C@@H]4NC(=O)c4cc(-c5cnn(C)c5)cnc4N)cc3)cc2)CC1,"enzyme activity, inhibitor",,0.1 µM,,inhibition,6%
CCn1cc(C(=O)O)c(=O)c2c(N)c(F)c(NC3CCCCC3)cc21,kinase activity,,"0.1 µM, with: ATP at Km",,inhibition,-4.3%
c1ccc2c(Nc3cc(C4CCC4)[nH]n3)nc(Nc3ccc4nc[nH]c4c3)nc2c1,"enzyme activity, inhibitor",,0.25 µM,,remaining activity,2%
Nc1ncc(-c2cc(-c3cnn(CC(F)(F)F)c3)ncc2F)nc1C(=O)NC1CNCC(F)C1 (centres unmarked),enzyme activity,,1 µM,relative to: DMSO control,remaining activity,95.3%
Cc1ccc(C)c(-c2ccc3nc(NC(=O)C4CCCCC4)nn3c2)c1,"enzyme activity, Dundee kinase panel",,10 µM,,remaining activity,45%
COCC12C(=O)NC3C4(C(OC)CC1O)C1CC5(O)C(OC)C(O)C(OC(C)=O)(C1C5OC(=O)c1ccccc1)C3(O)C(OC)C24 (centres unmarked),"kinase activity, inhibitor, ProQinase kinase profiling",,25 µM,relative to: control,remaining activity,101% and 96%
C=CC(=O)N1CCCC(n2c(=O)c3ncccc3n(Cc3ccc(Oc4ccccc4)cc3)c2=O)C1 (centres unmarked),"cell-free assay, competition with immobilised ligand",,1 µM,,remaining binding,100%
Cc1cccc(-c2ccc3nc(NC(=O)C4CCCO4)nn3c2)c1 (centres unmarked),"enzyme activity, Dundee kinase panel",,10 µM,,remaining activity,85%
CS(=O)(=O)Nc1cccc(-c2csc3cnc(Nc4ccc(N5CCN(CCCCCOc6cccc7c6C(=O)N(C6CCC(=O)NC6=O)C7=O)CC5)cc4)nc23)c1 (centres unmarked),"probe labelling, inhibitor, KiNativ chemoproteomics",MOLT-4,1 µM,,inhibition,-8.83%
Cc1cnc2nc1Nc1cccc(c1)COC/C=C/COCc1cc(ccc1OCCN1CCOCC1)N2,binding,,0.1 µM,,remaining binding,100%
COc1cc(Nc2nccc(-c3cnn4nc(OC)ccc34)n2)cc(C(F)(F)F)c1,"binding, competition with immobilised ligand",,1 µM,,remaining binding,90%

# For quick reference, copied from above:
SMILES,test,system,setting,how to read,endpoint,result
COCC12C(=O)NC3C4(C(OC)CC1O)C1CC5(O)C(OC)C(O)C(OC(C)=O)(C1C5OC(=O)c1ccccc1)C3(O)C(OC)C24 (centres unmarked),"kinase activity, inhibitor, ProQinase kinase profiling",,25 µM,relative to: control,remaining activity,101% and 96%
